Published values of several laboratories.
Protocols differ between the studies behind these lines. ± gives the spread as reported.
lasR: Transcriptional activator protein LasR (lasR, Pseudomonas aeruginosa, UniProt P25084)
cyp121: Mycocyclosin synthase (cyp121, Mycobacterium tuberculosis, UniProt P9WPP7)
Orco: Orco (Drosophila melanogaster, UniProt Q9VNB5)
FURIN: Furin (FURIN, Homo sapiens, UniProt P09958)
HDAC6: Protein deacetylase HDAC6 (HDAC6, Homo sapiens, UniProt Q9UBN7)
OXA-58: Beta-lactamase OXA-58 (OXA-58, Acinetobacter baumannii, UniProt Q2TR58)
MAPK8: Mitogen-activated protein kinase 8 (MAPK8, Homo sapiens, UniProt P45983)

Amino acid sequences for entries named in this document (tags omitted). Residues count along the entry.
UniProt P25084, whole entry: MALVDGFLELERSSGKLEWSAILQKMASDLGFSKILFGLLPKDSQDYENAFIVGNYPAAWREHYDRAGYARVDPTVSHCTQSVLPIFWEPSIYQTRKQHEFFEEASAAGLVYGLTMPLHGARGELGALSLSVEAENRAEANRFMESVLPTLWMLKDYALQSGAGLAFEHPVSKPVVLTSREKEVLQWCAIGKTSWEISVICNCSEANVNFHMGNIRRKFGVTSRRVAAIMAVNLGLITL
UniProt P25084, 1-173 limits assumed: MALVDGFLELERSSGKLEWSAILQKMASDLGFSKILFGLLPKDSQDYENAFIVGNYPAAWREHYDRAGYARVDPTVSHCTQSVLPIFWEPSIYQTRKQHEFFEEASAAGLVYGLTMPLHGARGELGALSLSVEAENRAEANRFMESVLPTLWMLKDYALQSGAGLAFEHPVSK
UniProt P9WPP7, whole entry: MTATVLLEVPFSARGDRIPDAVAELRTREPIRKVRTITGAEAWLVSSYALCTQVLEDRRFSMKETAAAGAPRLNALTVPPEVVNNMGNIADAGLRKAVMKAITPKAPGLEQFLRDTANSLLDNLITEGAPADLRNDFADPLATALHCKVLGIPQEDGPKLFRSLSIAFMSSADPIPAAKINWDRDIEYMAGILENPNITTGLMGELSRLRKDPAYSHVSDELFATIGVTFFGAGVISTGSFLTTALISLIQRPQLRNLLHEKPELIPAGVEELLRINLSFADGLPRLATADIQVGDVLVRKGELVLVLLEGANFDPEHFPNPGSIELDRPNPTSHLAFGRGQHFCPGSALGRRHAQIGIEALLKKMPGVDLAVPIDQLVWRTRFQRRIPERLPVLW
UniProt Q9VNB5, whole entry: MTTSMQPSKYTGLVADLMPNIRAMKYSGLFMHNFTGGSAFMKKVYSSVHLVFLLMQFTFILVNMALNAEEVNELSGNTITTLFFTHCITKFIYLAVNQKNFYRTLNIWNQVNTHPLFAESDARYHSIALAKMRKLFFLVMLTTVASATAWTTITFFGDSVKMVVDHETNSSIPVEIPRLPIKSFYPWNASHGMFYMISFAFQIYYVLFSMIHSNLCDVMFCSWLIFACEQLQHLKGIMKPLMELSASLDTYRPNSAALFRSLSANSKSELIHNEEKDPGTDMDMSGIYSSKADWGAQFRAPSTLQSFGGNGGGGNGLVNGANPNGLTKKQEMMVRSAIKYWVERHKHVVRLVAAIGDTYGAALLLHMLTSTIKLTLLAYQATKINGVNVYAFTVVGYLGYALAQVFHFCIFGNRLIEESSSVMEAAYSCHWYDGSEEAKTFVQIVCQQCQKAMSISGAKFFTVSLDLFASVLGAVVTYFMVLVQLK
UniProt P09958, 108-715 limits assumed: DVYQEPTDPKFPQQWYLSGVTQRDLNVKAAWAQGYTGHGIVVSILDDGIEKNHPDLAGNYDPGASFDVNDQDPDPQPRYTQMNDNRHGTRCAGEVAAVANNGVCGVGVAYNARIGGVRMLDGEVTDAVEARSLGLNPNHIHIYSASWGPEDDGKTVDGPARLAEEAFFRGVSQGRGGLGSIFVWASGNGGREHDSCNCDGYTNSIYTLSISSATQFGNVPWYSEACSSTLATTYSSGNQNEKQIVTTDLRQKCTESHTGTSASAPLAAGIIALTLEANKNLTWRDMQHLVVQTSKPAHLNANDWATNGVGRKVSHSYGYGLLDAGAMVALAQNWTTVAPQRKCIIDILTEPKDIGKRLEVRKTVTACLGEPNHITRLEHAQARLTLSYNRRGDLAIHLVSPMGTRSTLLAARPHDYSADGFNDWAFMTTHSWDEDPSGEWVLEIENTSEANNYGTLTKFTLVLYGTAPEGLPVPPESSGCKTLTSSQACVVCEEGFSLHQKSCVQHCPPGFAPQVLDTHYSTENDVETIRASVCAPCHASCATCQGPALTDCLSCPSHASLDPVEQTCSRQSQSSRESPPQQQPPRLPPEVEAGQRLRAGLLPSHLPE
UniProt P09958, whole entry, looked up: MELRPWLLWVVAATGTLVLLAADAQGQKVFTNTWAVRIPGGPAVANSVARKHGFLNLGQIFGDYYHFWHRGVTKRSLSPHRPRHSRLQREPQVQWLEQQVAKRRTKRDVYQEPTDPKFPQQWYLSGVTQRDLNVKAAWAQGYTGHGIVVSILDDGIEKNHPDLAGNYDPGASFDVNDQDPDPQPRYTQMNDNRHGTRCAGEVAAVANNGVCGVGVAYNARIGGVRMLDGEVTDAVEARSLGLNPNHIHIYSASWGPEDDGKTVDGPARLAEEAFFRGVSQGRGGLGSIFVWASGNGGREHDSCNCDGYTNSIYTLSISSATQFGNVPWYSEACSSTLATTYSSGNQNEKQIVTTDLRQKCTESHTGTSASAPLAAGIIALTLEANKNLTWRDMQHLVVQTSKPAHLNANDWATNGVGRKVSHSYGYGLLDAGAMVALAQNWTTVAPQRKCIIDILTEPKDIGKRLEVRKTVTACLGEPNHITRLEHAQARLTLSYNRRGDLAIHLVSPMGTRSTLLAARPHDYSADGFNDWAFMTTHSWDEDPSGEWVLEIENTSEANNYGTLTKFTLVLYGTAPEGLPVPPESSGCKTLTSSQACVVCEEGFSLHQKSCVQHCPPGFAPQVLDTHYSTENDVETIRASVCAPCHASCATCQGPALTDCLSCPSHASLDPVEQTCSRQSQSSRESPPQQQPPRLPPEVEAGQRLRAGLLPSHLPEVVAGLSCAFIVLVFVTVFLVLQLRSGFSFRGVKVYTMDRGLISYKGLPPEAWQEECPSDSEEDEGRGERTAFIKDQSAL
UniProt Q2TR58, 19-280 limits assumed: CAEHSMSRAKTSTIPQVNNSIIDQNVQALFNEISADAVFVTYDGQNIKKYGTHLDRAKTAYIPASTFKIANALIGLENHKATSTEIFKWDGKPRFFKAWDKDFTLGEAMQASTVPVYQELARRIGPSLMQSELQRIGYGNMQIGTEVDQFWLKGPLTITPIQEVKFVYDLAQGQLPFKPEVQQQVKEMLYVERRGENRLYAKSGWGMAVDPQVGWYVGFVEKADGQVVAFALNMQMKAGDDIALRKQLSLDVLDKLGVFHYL
UniProt P33535, whole entry: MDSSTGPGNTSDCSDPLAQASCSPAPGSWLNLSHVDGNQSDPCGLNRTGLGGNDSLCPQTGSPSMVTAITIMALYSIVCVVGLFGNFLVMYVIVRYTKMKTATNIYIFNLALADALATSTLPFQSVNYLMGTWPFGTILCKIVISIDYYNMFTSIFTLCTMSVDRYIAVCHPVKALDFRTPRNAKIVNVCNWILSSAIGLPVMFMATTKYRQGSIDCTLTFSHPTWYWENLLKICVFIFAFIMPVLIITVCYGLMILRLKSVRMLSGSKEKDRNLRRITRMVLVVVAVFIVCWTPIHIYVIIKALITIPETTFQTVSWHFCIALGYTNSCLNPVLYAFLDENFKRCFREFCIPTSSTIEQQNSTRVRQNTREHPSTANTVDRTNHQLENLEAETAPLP
UniProt Q07440, whole entry P104K/C113S, looked up: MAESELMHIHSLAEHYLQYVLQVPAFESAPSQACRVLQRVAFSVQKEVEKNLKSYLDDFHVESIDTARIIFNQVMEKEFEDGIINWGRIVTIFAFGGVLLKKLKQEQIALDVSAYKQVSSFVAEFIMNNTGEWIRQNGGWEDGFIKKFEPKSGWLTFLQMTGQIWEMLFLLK
UniProt Q9WMX2, 2420-3010 S2701T limits assumed: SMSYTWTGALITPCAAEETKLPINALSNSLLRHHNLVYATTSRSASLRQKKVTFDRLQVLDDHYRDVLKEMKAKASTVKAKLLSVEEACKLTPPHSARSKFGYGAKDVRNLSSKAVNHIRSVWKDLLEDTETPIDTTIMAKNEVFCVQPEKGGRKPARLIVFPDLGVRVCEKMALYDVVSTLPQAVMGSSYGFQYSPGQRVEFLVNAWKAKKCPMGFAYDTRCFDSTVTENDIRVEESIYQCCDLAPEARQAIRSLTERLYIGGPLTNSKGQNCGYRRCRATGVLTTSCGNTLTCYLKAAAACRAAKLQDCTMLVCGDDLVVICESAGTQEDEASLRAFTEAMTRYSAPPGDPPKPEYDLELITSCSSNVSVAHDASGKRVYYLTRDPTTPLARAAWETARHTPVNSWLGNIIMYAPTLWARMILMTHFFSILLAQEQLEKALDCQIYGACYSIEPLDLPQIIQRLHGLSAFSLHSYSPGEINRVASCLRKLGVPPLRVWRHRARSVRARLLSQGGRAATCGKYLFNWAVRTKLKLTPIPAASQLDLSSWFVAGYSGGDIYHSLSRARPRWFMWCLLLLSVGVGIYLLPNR
UniProt P30291, whole entry: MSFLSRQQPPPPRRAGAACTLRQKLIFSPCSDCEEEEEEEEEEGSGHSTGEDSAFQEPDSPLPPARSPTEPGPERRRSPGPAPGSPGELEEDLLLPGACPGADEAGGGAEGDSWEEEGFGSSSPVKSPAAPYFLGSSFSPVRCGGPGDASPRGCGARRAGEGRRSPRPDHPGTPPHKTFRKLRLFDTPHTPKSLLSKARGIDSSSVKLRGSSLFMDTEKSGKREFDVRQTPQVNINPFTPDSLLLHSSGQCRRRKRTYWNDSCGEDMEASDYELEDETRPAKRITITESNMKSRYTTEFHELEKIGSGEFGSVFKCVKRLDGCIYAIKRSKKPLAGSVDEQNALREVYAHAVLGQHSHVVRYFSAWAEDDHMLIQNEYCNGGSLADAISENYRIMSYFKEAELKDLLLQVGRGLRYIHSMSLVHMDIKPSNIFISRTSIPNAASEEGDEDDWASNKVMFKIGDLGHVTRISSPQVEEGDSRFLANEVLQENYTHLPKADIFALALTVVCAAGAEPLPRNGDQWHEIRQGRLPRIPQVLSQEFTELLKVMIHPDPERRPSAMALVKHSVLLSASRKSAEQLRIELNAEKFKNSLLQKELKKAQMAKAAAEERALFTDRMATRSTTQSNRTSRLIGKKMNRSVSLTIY
UniProt P35372, whole entry: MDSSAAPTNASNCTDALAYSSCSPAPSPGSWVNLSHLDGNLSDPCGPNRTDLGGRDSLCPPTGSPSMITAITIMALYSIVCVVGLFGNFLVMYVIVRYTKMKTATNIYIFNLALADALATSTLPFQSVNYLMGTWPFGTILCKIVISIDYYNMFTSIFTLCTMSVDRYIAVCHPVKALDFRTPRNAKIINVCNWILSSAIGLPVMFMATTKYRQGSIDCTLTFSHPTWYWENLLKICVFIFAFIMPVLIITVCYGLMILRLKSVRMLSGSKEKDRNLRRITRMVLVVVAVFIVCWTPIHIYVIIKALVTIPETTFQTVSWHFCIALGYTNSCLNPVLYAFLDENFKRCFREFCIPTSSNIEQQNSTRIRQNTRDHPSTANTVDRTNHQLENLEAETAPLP
UniProt P38489, whole entry: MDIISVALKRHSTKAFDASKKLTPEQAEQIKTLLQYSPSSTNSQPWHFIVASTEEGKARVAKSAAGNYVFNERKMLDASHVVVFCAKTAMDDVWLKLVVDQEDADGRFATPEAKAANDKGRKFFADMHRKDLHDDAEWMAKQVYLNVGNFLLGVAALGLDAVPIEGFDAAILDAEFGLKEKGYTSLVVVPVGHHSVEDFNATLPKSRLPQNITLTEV
UniProt P51452, 28-179 limits assumed: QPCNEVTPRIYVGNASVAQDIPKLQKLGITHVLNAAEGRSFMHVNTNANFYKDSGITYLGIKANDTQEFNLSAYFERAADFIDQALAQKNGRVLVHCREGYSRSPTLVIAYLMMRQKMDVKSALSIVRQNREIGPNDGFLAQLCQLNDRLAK
UniProt P14867, whole entry, looked up: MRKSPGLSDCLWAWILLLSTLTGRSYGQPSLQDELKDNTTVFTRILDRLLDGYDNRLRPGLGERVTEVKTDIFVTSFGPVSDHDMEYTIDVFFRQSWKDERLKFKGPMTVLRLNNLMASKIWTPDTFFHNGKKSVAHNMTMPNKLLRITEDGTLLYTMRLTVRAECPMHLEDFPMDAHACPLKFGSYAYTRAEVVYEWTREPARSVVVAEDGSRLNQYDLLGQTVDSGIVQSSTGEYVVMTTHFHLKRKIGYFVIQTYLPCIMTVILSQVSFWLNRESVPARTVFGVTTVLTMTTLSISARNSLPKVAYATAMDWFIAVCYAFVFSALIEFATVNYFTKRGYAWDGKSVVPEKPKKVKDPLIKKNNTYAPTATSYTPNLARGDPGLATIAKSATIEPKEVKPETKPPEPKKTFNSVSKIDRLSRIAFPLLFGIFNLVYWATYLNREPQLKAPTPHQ
UniProt Q76LL8, 24-415 limits assumed: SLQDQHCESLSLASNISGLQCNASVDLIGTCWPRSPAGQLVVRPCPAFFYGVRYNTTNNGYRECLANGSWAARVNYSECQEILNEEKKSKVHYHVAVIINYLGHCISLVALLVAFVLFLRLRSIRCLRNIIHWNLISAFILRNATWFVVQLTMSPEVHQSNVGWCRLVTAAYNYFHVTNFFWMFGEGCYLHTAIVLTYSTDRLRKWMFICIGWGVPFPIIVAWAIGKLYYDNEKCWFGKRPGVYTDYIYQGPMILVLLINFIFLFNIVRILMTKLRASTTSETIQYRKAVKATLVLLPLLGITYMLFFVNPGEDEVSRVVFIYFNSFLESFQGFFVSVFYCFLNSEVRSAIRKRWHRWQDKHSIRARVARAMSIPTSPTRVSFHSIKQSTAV

`CCCCCCCC(=O)Oc1c(Br)cc(Br)cc1CNC(=O)c1ccccc1[N+](=O)[O-]` gave a maximum efficacy of 99% (lasR; reporter gene, agonist; Escherichia coli JLD271 lasI-lacZ reporter; baseline: OdDHL).
The Kd of `c1ccc(-c2ccc3c(c2)CCC3n2ccnc2)cc1` (stereo not drawn) is reported as 5.5 ± 0.9 µM (cyp121; binding).
`N#Cc1cc(C(=O)N[C@@H]2CC[C@@]3(O)[C@H]4Cc5ccc(O)c6c5[C@@]3(CCN4CC3CC3)[C@H]2O6)ccn1` has an Emax of 58.1 ± 1.48% (Mu-type opioid receptor (Oprm1, Rattus norvegicus, UniProt P33535); agonist; CHO cell membranes; 5 µM; baseline: DAMGO).
Under “k-2 reverse rate constant”, `COc1ccc2c(c1)c(CC(=O)NCCCCNC(=O)CCC(=O)OC1c3cc4c(cc3C(c3cc(OC)c(OC)c(OC)c3)C3C(=O)OCC13)OCO4)c(C)n2C(=O)c1ccc(Cl)cc1` (stereo not drawn) is recorded as 0.0017 s⁻¹ (Prostaglandin G/H synthase 2 (Ptgs2, Mus musculus, UniProt Q05769); time-dependent inhibitor; 37 °C).
With `N#Cc1ccccc1C(=O)Oc1c(Br)cc(Br)cc1CNC(=O)c1ccccc1[N+](=O)[O-]` the melting temperature was 64.5 °C (lasR; thermal stability, differential scanning fluorimetry).
The efficacy of `CCn1c(SCC(=O)Nc2ccc(C(C)=O)cc2)nnc1-c1cccnc1` is reported as 96% (Orco; calcium mobilization, agonist; HEK293 expressing Drosophila Orco; baseline: VUAA1).
`O=[N+]([O-])c1ccc(N=Nc2c(O)ccc3cc(S(=O)(=O)O)ccc23)cc1` — result for “Noxa peptide bound”: 43.5% (Bcl-2-related protein A1 (Mus musculus, UniProt Q07440, C113S/P104K); binding, inhibitor, fluorescence polarization competition; 100 µM, overnight, 20 °C, together with: FITC-Noxa peptide 375 nM; baseline: peptide without protein).
`O=c1ccn([C@@H]2O[C@H](COP(=O)(O)OP(=O)(O)OP(=O)(O)O)[C@@H](O)[C@]2(F)Br)c(=O)[nH]1` — result for “IC50 fold change”: 70 (Genome polyprotein, NS5B polymerase (Hepatitis C virus genotype 1b, UniProt Q9WMX2, S2701T); polymerase activity, inhibitor; Hepatitis C virus, genotype 1b; baseline: genotype 1b wild type).
`COc1ccc(C(=O)Oc2c(Br)cc(Br)cc2CNC(=O)c2ccccc2[N+](=O)[O-])cc1` has a maximum efficacy of 105% (lasR; reporter gene, agonist; Escherichia coli JLD271 lasI-lacZ reporter; baseline: OdDHL).
The efficacy of `CC(C)c1ccc(NC(=O)CSc2nnc(-c3ccncc3)n2C2CCCC2)cc1` is reported as 13% (Orco; calcium mobilization, agonist; HEK293 expressing Drosophila Orco; baseline: VUAA1).
`C=CCN1CC[C@]23c4c5ccc(O)c4O[C@H]2[C@H](NC(=O)c2ccc(N=[N+]=[N-])c([125I])c2)CC[C@@]3(O)[C@H]1C5` — result for “dissociation half-life (slow phase)”: 1.35 h (Mu-type opioid receptor (Oprm1, Mus musculus, UniProt P42866); binding; CHO cell membranes; 0.1 nM, 25 °C).
The Dmax of `COc1ccc2c(c1)sc1nc(-c3ccc4c(c3)CN(C3CCC(=O)NC3=O)C4=O)c(NCc3ccccc3)n12` (stereo not drawn) is reported as 83% (WEE1/CRBN (Homo sapiens, UniProt P30291+Q96SW2); degrader, HiBiT; Jurkat; 5 h).
With `O=C(Oc1c(Br)cc(Br)cc1CNC(=O)c1ccccc1[N+](=O)[O-])c1ccc(Cl)cc1` the maximum efficacy was 94% (lasR; reporter gene, agonist; Escherichia coli JLD271 lasI-lacZ reporter; baseline: OdDHL).
With `CCCC(=O)NCC1CCCO1` (racemic) the activation was 0% (HTH-type quorum-sensing regulator RhlR (rhlR, Pseudomonas aeruginosa, UniProt P54292); reporter gene, agonist; Escherichia coli JLD271 reporter; 10 µM; baseline: BHL 1 mM).
`COc1ccc(CN[C@@H]2CO[C@H](C(c3ccccc3)c3ccccc3)C[C@H]2O)cc1` has an inhibition of 48.8% (Mu-type opioid receptor (OPRM1, Homo sapiens, UniProt P35372); radioligand binding; 10 µM, together with: [3H]diprenorphine).
With `CC1(C)C(=CC=C(C=CC2=[N+](CCCCS(=O)(=O)[O-])c3ccc4ccccc4c3C2(C)C)c2ccc3cc[n+](Cc4ccc([N+](=O)[O-])cc4)cc3c2)N(CCCCS(=O)(=O)[O-])c2ccc3ccccc3c21` the Km was under 1 µM (Oxygen-insensitive NAD(P)H nitroreductase (nfsB, Escherichia coli K-12, UniProt P38489); substrate, fluorogenic turn-on).
With `CC(C)C[C@H](NC(=O)c1ccccc1N)C(=O)N[C@@H](CCCCN)C(=O)N[C@@H](CCCNC(=N)N)C(=O)N[C@@H](CCCNC(=N)N)C(=O)N[C@@H](CCCNC(=N)N)C(=O)N[C@@H](CCCNC(=N)N)C(=O)N[C@@H](CC(=O)O)C(=O)N[C@H](C(=O)N[C@@H](CCC(N)=O)C(=O)N[C@@H](CCC(N)=O)C(=O)N[C@@H](CCC(N)=O)C(=O)NCCNc1ccc([N+](=O)[O-])cc1[N+](=O)[O-])[C@@H](C)O` the Km was 5.2 µM (FURIN; substrate; pH 7).
`CC(=O)NCCCC[C@H](NC(C)=O)C(N)=O` has a kcat/KM of 150 ± 30 M⁻¹ s⁻¹ (HDAC6; deacetylation, substrate; 25 °C, together with: 10 to 50 nM enzyme).
The kcat/Km of `CC(=O)N[C@@H](Cc1c[nH]cn1)C(=O)N[C@H](C(=O)NCC(=O)N[C@@H](Cc1ccccc1)C(=O)N[C@@H](CC(C)C)C(=O)N[C@H](C(=O)N[C@@H](CCC(=O)O)C(=O)N[C@@H](Cc1cc(=O)oc2cc(OP(=O)(O)O)ccc12)C(=O)N[C@H](C(=O)N[C@@H](C)C(=O)N[C@H](C(=O)N[C@@H](CCCNC(=N)N)C(=O)N[C@@H](Cc1c[nH]c2ccccc12)C(N)=O)[C@@H](C)O)C(C)C)[C@@H](C)O)[C@@H](C)O` is reported as 5880 M⁻¹ s⁻¹ (Dual specificity protein phosphatase 3 (DUSP3, Homo sapiens, UniProt P51452); substrate; pH 6, ERK1/2 activation-loop peptide).
`CC(=O)N[C@@H](CCCNC(=N)N)C(=O)N[C@H](C(=O)N[C@@H](CCCNC(=N)N)C(=O)N[C@@H](CCCNC(=N)N)C(=O)Nc1ccc2c(C)cc(=O)oc2c1)C(C)C` has a Km of 4.9 µM (FURIN; substrate; pH 7).
`CC1(C)SCN(C(=O)[C@@H](O)[C@H](Cc2ccccc2)NC(=O)COc2ccccc2)[C@@H]1C(=O)N[C@H]1c2ccccc2C[C@H]1O` — result for “-TΔS of binding”: -6.328 ± 0.033 kcal/mol (Gag-Pol polyprotein, protease (gag-pol, Human immunodeficiency virus type 1 group M subtype B, UniProt P04585, L521I/L551I/Q495K); isothermal titration calorimetry; concentration not given, pH 5.0, 25 °C, 2% DMSO).
For `CC(=O)N[C@@H](CCCNC(=N)N)C(=O)N[C@H](C(=O)N[C@@H](CCCNC(=N)N)C(=O)N[C@@H](CCCNC(=N)N)C(=O)Nc1ccc2c(C)cc(=O)oc2c1)C(C)C`, hydrolysis rate read “decreased” (FURIN; substrate; concentration not given, together with: KCl).
`O=C(Cc1cccs1)NC(B(O)O)c1cccc(C(=O)O)c1` (stereo not drawn) has a mass shift of 0 Da (ADC-7 beta-lactamase (Acinetobacter baumannii, UniProt Q6DRA1); ESI-MS intact protein; 15 min, together with: enzyme 14 µM; baseline: free β-lactamase).
`CC(=O)NCCCC[C@H](NC(=O)CNC(=O)[C@H](CCCNC(=N)N)NC(C)=O)C(N)=O` gave a kcat of 0.32 ± 0.06 s⁻¹ (HDAC6; deacetylation, substrate; 25 °C, together with: 10 to 50 nM enzyme).
For `O=S(=O)(O)c1ccc(-c2ccc(S(=O)(=O)O)cc2)cc1`, the ligand efficiency was 0.44 (OXA-58; enzyme activity, inhibitor).
Under “dissociation half-life (slow phase)”, `C#CCN1CC[C@]23c4c5ccc(O)c4O[C@H]2[C@H](NC(=O)c2ccc(N=[N+]=[N-])c([125I])c2)CC[C@@]3(O)[C@H]1C5` is recorded as 6.48 h (Mu-type opioid receptor (Oprm1, Mus musculus, UniProt P42866); binding; CHO cell membranes; 0 °C).
The melting temperature of `O=C(NCc1cc(Br)cc(Br)c1O)c1ccccc1[N+](=O)[O-]` is reported as 50.5 ± 0.5 °C (lasR; thermal stability, differential scanning fluorimetry).
`O=C1NC(=O)C2(Cc3ccccc32)N1` (racemic) gave a maximal inhibition of 114% (GABA-A receptor alpha-1/beta-3 (GABRA1/GABRB3, Homo sapiens, UniProt P14867+P28472); [3H]muscimol binding; alpha1beta3 receptor).
For `COC(=O)[C@@H](CS)N1C(=O)c2ccc(N(C)C)cc2C1=O`, the fluorescence increase was 12 fold (Metallo-beta-lactamase type 2 (blaNDM-1, Klebsiella pneumoniae, UniProt C7C422); probe; 10 µM, pH 7.0, probe:enzyme 1:3, together with: ZnSO4 10 µM; baseline: probe alone).
For `COC(=O)[C@@]1(C)C=C(C(=O)Nc2cc(C(=O)Nc3ccc(Nc4nccc(-c5cccnc5)n4)cc3)ccc2C)C(=O)CC1`, the remaining activity was 0.247 (MAPK8; kinase activity, inhibitor; 0.06097 µM, unit not given, together with: 10 mM GSH; baseline: DMSO).
For `COCCN(CCOC)c1nc(C)nc2c(-c3c(OC)cc([76Br])cc3OC)c(C)nn12`, the specific binding was about 80% (Corticotropin-releasing factor receptor 1 (Macaca mulatta, UniProt Q76LL8); in vitro autoradiography; rhesus prefrontal cortex laminae; concentration not given).
`COC(=O)[C@@]1(C)C=C(C(=O)Nc2ccc(C)c(C(=O)Nc3ccc(Nc4nccc(-c5cccnc5)n4)cc3)c2)C(=O)CC1` gave a remaining activity of 0.0943 (MAPK8; kinase activity, inhibitor; 0.5487 µM, unit not given, together with: 10 mM GSH; baseline: DMSO).
With `CCC(c1cc(-c2ccc(F)c(F)c2)cs1)n1ccnc1` (stereo not drawn) the Kd was 6.3 ± 1.1 µM (cyp121; binding).
With `CCn1c(SCC(=O)Nc2ccc(C(C)C)cc2)nnc1-c1cnn(C)c1` the efficacy was 34% (Orco; calcium mobilization, agonist; HEK293 expressing Drosophila Orco; baseline: VUAA1).
`CC(=O)NCCCC[C@H](NC(C)=O)C(=O)N[C@@H](Cc1c[nH]c2ccccc12)C(N)=O` gave a kcat of over 0.02 s⁻¹ (Histone deacetylase 8 (HDAC8, Homo sapiens, UniProt Q9BY41); deacetylation, substrate; 25 °C, together with: 150 nM enzyme).
For `O=S(=O)(O)c1ccc2c(c1)Cc1cc(S(=O)(=O)O)ccc1-2`, the ligand efficiency was 0.36 (OXA-58; enzyme activity, inhibitor).

For quick reference, copied from above:
`O=C1NC(=O)C2(Cc3ccccc32)N1` (racemic) gave a maximal inhibition of 114% (GABA-A receptor alpha-1/beta-3 (GABRA1/GABRB3, Homo sapiens, UniProt P14867+P28472); [3H]muscimol binding; alpha1beta3 receptor).
For `COC(=O)[C@@H](CS)N1C(=O)c2ccc(N(C)C)cc2C1=O`, the fluorescence increase was 12 fold (Metallo-beta-lactamase type 2 (blaNDM-1, Klebsiella pneumoniae, UniProt C7C422); probe; 10 µM, pH 7.0, probe:enzyme 1:3, together with: ZnSO4 10 µM; baseline: probe alone).
For `COC(=O)[C@@]1(C)C=C(C(=O)Nc2cc(C(=O)Nc3ccc(Nc4nccc(-c5cccnc5)n4)cc3)ccc2C)C(=O)CC1`, the remaining activity was 0.247 (MAPK8; kinase activity, inhibitor; 0.06097 µM, unit not given, together with: 10 mM GSH; baseline: DMSO).
